Measurements of several laboratories.
Compare with care: the assays were run in different laboratories. Numbers after ± are the reported error.
Organism: Trypanosoma cruzi

Structure (SMILES)	test	test system	conditions	scale	measurement	result
CCCCCCCC1=CC(=O)c2ccccc2S1(=O)=O	intracellular amastigote growth	U-937, Tulahuen, β-galactosidase transfected	72 h	–	EC50	32 µM
O=C1CNC(=S)N1	–	intracellular amastigotes	–	baseline: LLC-MK2 CC50 over amastigote IC50	selectivity index	6.74
NNc1nnc(Cl)c2ccccc12	parasite growth	–	25 µM, epimastigote	–	inhibition	10.2%
Cc1ccc2nc(-c3ccccc3)c(CN3CCOCC3)n2c1	–	3T3 host cells, Tulahuen beta-galactosidase	6 days	–	EC50	13.4 µM
C#CCO[C@H]1C[C@H]2[C@@H](C)C[C@H]3OC(=O)C(=C)[C@H]3C[C@]2(C)[C@H]1O	–	epimastigote	–	baseline: CC50 splenocytes over IC50 epimastigotes	selectivity index	7.2
Cc1ccc2nc(-c3ccccc3)c(CN3CCCCC3)n2c1	–	3T3 host cells, Tulahuen beta-galactosidase	6 days	–	EC50	15 µM
COc1ccc(Nc2c(C#N)cnc3ccc(Cl)cc23)cc1	viability, resazurin	trypomastigotes, Y	24 h, RPMI medium, added: 30 µM heme	–	IC50	11.7 ± 4 µM
Cc1cc(C)n2cc(-c3ccccc3)nc2c1	–	3T3 host cells, Tulahuen beta-galactosidase	6 days	–	EC50	7.2 µM
C[n+]1cc2c3c(ccc2c2ccc4cc5c(cc4c21)OCO5)OCO3	–	U-2 OS host cells, Y	72 h, intracellular amastigotes, added: FBS 10%	–	EC50	0.4 µM
C=C1C(=O)O[C@@H]2C[C@H](C)[C@@H]3C[C@H](OC(C)=O)[C@H](OC(C)=O)[C@@]3(C)C[C@H]12	–	K-98 clone, mice, Chagas disease model	intraperitoneal, 1 mg/kg/day, days 11 to 15 post-infection	baseline: mock-treated mice	parasitemia AUC decrease	10 fold
Cc1ccc(-c2cn3cc(C)ccc3n2)cc1	–	3T3 host cells, Tulahuen beta-galactosidase	6 days	–	EC50	> 5 µM
Cc1cc2[nH]c(C(=O)Nc3ccccc3C)c(CN3CCOCC3)c2s1	parasite growth, imaging	intracellular amastigotes in NIH3T3, Tulahuen	highest tested	–	inhibition	< 50%
C=C1C(=O)O[C@@H]2C[C@H](C)[C@@H]3C[C@H](O)[C@H](O)[C@@]3(C)C[C@H]12	cell growth, thymidine uptake	epimastigotes	1.5 to 50 µg/mL, range over concentrations	–	inhibition	33 to 99%
O=c1cc[s+]([O-])c2ccc(Cl)cc12 (single isomer, unassigned; (+))	intracellular amastigote growth	U-937, Tulahuen, β-galactosidase transfected	72 h	–	EC50	87.3 µM
C=C1C(=O)O[C@@H]2C[C@H](C)[C@@H]3C[C@H](OCc4cn(Cc5ccccc5)nn4)[C@H](O)[C@@]3(C)C[C@H]12	–	epimastigote	–	baseline: CC50 splenocytes over IC50 epimastigotes	selectivity index	4.6
Cc1ccc2nc(-c3ccccc3)c(CN3CCN(c4cccc(Cl)c4Cl)CC3)n2c1	–	3T3 host cells, Tulahuen beta-galactosidase	6 days	–	EC50	3.31 µM

For quick reference, copied from above:
Structure (SMILES)	test	test system	conditions	scale	measurement	result
Cc1ccc2nc(-c3ccccc3)c(CN3CCOCC3)n2c1	–	3T3 host cells, Tulahuen beta-galactosidase	6 days	–	EC50	13.4 µM
